Measured values pooled from the literature.
Compare with care: the assays were run in different laboratories. ± gives the spread as reported.
Target: Acetylcholinesterase (ACHE, Homo sapiens, UniProt P22303)
Chain of UniProt P22303 (whole entry, looked up): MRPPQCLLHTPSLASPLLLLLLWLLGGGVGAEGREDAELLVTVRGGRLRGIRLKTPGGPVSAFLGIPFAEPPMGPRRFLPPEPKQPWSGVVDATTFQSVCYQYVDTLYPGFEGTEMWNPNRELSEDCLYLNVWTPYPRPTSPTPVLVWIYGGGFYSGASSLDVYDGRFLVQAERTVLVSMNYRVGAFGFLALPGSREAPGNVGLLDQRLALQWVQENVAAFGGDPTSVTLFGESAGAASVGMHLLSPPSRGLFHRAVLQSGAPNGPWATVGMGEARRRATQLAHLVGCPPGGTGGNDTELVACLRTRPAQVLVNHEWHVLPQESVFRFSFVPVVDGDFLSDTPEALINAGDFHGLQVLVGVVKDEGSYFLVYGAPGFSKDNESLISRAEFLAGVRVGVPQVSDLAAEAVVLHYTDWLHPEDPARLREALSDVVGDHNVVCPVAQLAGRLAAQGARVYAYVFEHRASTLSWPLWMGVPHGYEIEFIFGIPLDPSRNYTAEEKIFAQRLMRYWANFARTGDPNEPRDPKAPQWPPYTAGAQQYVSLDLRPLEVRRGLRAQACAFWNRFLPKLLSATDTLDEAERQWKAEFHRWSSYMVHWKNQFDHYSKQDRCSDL

| SMILES | test | setting | IC50 [µM] |
| --- | --- | --- | --- |
| CCOc1ccc2nc3cc(N)ccc3c(N)c2c1 | enzyme activity, inhibitor, Ellman |  | 6.9 |
| C=CCc1ccc(OC(=O)COC(=O)Cn2cnc3c2c(=O)n(C)c(=O)n3C)c(OC)c1 | enzyme activity, inhibitor, Ellman |  | 1.8 |
| CC(=O)C(=NNc1ccc2c(C)cc(=O)oc2c1)N1CCNCC1 | enzyme activity, inhibitor, Ellman |  | 137 |
| CCCCc1ccc(N(C)C(=O)Oc2cc3oc4cc5c(c(O)c4c(=O)c3c(CC=C(C)C)c2OC)C=CC(C)(C)O5)cc1 | enzyme activity, inhibitor |  | 34.5 |
| CCCN1CCN(C(=NNc2ccc3c(C)cc(=O)oc3c2)C(C)=O)CC1 | enzyme activity, inhibitor, Ellman |  | 222 |
| O=c1c(O)c(-c2ccc(O)cc2)oc2c(Cc3c(O)cc(O)c4c(=O)c(O)c(-c5ccc(O)c(O)c5)oc34)c(O)cc(O)c12 | enzyme activity, inhibitor, Ellman |  | 0.73 |
| O=C(NCc1ccc[n+](Cc2ccccc2Cl)c1)c1ccc(CN2C(=O)c3ccccc3C2=O)cc1 | enzyme activity, inhibitor, Ellman |  | 2.34 |
| O=C(Cc1ccccc1)C(F)(F)F | enzyme activity, inhibitor, Ellman |  | 0.51 |
| CC(=O)C(Cl)=NNc1ccc2c(C)cc(=O)oc2c1 | enzyme activity, inhibitor, Ellman |  | 42.5 |
| O=C1c2ccccc2NC(c2cc(Cl)ccc2O)N1N=Cc1cc(Cl)ccc1O (centres unmarked) | enzyme activity, inhibitor, Ellman |  | 14.5 |
| COc1cccc(N(C)C(=O)Oc2cc3oc4cc5c(c(O)c4c(=O)c3c(CC=C(C)C)c2OC)C=CC(C)(C)O5)c1 | enzyme activity, inhibitor |  | 43.4 |
| CNCCc1ccc(O)cc1 | enzyme activity, inhibitor | no inhibition observed | 464 ± 9.65 |
| COc1ccc2[nH]cc(CCNS(=O)(=O)CCc3cn(-c4cnc5ccccc5c4)nn3)c2c1 | enzyme activity, inhibitor |  | 1.35 |
| NNC(=O)c1ccc(-n2nc(-c3ccccc3O)nc2-c2ccccc2O)cc1 |  |  | 0.31 ± 0.02 |
| COc1cc2c(cc1OC)C(=O)/C(=C\c1ccc(Cl)cc1)C2 | enzyme activity, inhibitor, Ellman |  | > 10 |
| COc1cc(Br)cc(/C=N/N2C(=O)c3ccccc3NC2c2cc(Br)cc(OC)c2O)c1O (centres unmarked) | enzyme activity, inhibitor, Ellman |  | 19.5 |
| COc1cc2c(cc1OC)C(=O)/C(=C\c1ccc(N3CCCC3)cc1)C2 | enzyme activity, inhibitor, Ellman |  | 64 |
| COc1c(OC(=O)N(C)c2cccc(C)c2)cc2oc3cc4c(c(O)c3c(=O)c2c1CC=C(C)C)C=CC(C)(C)O4 | enzyme activity, inhibitor |  | > 100 |

| SMILES | test | setting | IC50 [µM] |
| --- | --- | --- | --- |
| O=C1C=C(OCCCCCCn2cc(CNc3ccc4nccnc4c3)nn2)C(=O)c2ccccc21 | enzyme activity, inhibitor, Ellman |  | 0.58 |
| O=C1c2c(O)cc(O)cc2OC2(c3ccc(O)c(O)c3)Oc3cc(O)c4c(=O)c(O)c(-c5ccc(O)cc5)oc4c3C12O (racemic) | enzyme activity, inhibitor, Ellman |  | 6.39 |
| O=C1N[C@H]2[C@H](O)[C@H](O)[C@@H](O)C[C@@H]2c2cc3c(c(O)c21)OCO3 | enzyme activity, inhibitor |  | 1590 |
| COc1cc2c(cc1OC)C(=O)/C(=C\c1ccc(-n3ccnc3)cc1)C2 | enzyme activity, inhibitor, Ellman |  | 70 |
| CCCCC/C=C/CCCCCCCC(O)C(O)C(CO[C@@H]1O[C@H](CO)[C@@H](O)[C@H](O)[C@H]1O)NC(=O)C(O)CCCCCCCCCCCCCCCCCCCCCC (some centres unmarked) | enzyme activity |  | 463 |
| O=C1c2c(O)cc(O)cc2OC2(c3ccc(O)cc3)Oc3cc4oc(-c5ccc(O)c(O)c5)c(O)c(=O)c4c(O)c3C12O (racemic) |  |  | 4.55 ± 0.36 |
| COc1ccc(/C=C2/SC(Nc3nc(-c4ccc(OC)cc4)cs3)=NC2=O)cc1 | enzyme activity, inhibitor, Ellman |  | 0.109 |
| O=C1c2c(O)cc(O)cc2OC2(c3ccc(O)c(O)c3)Oc3cc4oc(-c5ccc(O)cc5)c(O)c(=O)c4c(O)c3C12O (racemic) | enzyme activity, inhibitor, Ellman |  | 2.72 |
| O=C1C=C(OCCCCn2cc(CNc3ccc4nccnc4c3)nn2)C(=O)c2ccccc21 | enzyme activity, inhibitor, Ellman |  | 31.1 |
| Cc1cc(O)c2c(c1)C(=O)c1c(O)ccc(O)c1C2=O | enzyme activity, inhibitor, Ellman |  | 7.9 |
| CCN(CCCCOc1ccc(CCC(=O)N2CCC(Cc3ccccc3)CC2)cc1OC)Cc1ccccc1 | enzyme activity, inhibitor, Ellman |  | 5.7 |
| COc1cc(/C=C/C(=O)CC(=O)/C=C/c2ccc(OC(=O)CCc3c[nH]c4ccccc34)c(OC)c2)ccc1OC(=O)CCc1c[nH]c2ccccc12 | enzyme activity, inhibitor |  | 59.3 |
| CCc1cccc(N(C)C(=O)Oc2cc3oc4cc5c(c(O)c4c(=O)c3c(CC=C(C)C)c2OC)C=CC(C)(C)O5)c1 | enzyme activity, inhibitor |  | 46 |
| Cc1ccc(C[n+]2cccc(CNC(=O)c3ccc(CN4C(=O)c5ccccc5C4=O)cc3)c2)cc1 | enzyme activity, inhibitor, Ellman |  | 7.56 |
| COc1c(OC(=O)N(C)c2cccc(Cl)c2)cc2oc3cc4c(c(O)c3c(=O)c2c1CC=C(C)C)C=CC(C)(C)O4 | enzyme activity, inhibitor |  | 47.8 |
| O=C(O)/C=C/c1cc(O)cc(O)c1 |  |  | 422 |
| O=C1c2c(O)cc(O)cc2OC2(c3ccc(O)cc3)Oc3cc(O)c4c(=O)c(O)c(-c5ccc(O)c(O)c5)oc4c3C12O (racemic) |  |  | 6.33 ± 0.45 |
